Experimental data of several laboratories.
Protocols differ between the studies behind these lines. Numbers after ± are the reported error.
Target: Mu-type opioid receptor (OPRM1, Homo sapiens, UniProt P35372)

Protein sequences, listed by entry. Tags and fused reporters are not part of them.
UniProt P35372, whole entry: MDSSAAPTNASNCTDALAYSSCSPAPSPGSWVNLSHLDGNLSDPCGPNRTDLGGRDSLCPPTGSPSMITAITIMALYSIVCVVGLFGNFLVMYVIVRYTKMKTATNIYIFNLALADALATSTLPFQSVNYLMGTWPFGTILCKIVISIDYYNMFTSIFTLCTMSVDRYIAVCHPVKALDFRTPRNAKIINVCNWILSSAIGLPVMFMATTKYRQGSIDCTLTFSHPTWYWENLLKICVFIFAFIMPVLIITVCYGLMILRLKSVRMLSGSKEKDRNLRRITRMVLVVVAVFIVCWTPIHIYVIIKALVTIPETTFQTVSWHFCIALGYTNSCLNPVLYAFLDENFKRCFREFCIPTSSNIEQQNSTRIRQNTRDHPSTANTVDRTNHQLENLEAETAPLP

| SMILES | assay | system | conditions | endpoint | value |
| --- | --- | --- | --- | --- | --- |
| C=C(I)[C@H]1CC[C@]2(C)C[C@H]1c1c(O)cc(CCCCC)cc1O2 | cAMP level, antagonist | HEK293 expressing human µ-opioid receptor | together with: fentanyl 500 pM (EC95) | IC50 | 499 nM |
| COc1cc2c(NC3CCN(C(C)C)CC3)nc(N3CCC(F)(F)CC3)nc2cc1OCCCN1CCCC1 | binding, radioligand binding | – | – | Ki | > 10000 nM |
| CCC1C(=O)N(C2CCN(C3CCCc4ccccc43)CC2)c2ccccc21 (stereo not drawn) | agonist | cell membranes | – | EC50 | 28.7 ± 5.5 nM |
| C=C(C)[C@H]1CCC(C)=C[C@@H]1c1c(O)cc(CC)cc1O | cAMP level, antagonist | HEK293 expressing human µ-opioid receptor | together with: fentanyl 500 pM (EC95) | IC50 | 6500 nM |
| CCC1C(=O)N(C2CCN(Cc3cccc4[nH]ccc34)CC2)c2ccccc21 (stereo not drawn) | radioligand displacement | – | together with: [3H]DAMGO | Ki | 10.6 ± 2.55 nM |
| Oc1cccc(N2[C@@H]3CC[C@H]2CNC3)c1 | cAMP, antagonist | – | human receptor, together with: fentanyl EC90 | IC50 | > 10000 nM |
| CCC1C(=O)N(C2CCN(C3CCc4ccccc4C3)CC2)c2ccccc21 (stereo not drawn) | radioligand displacement | – | together with: [3H]DAMGO | Ki | 10.2 ± 1.76 nM |
| Oc1cccc(N2CCN(CCCc3ccccc3)CC2)c1 | cAMP, antagonist | – | human receptor, together with: fentanyl EC90 | IC50 | 190 ± 20.9 nM |
| C=C[C@H]1[C@H]2CCC[C@]1(c1cccc(O)c1)CCN2CC1CC1 | forskolin-induced cAMP, antagonist | – | together with: fentanyl at EC90 | IC50 | 973 ± 506 nM |
| C=CCc1cc(O)c([C@@H]2C=C(C)CC[C@H]2C(=C)C)c(O)c1 | cAMP level, antagonist | HEK293 expressing human µ-opioid receptor | together with: fentanyl 500 pM (EC95) | IC50 | 1400 nM |
| N=C(N)NCC(=O)NCC1(Nc2cccc3ccccc23)CCN(Cc2ccccc2)CC1 | binding | HEK293 membranes | together with: [3H]DAMGO | Ki | 688 ± 60 nM |
| C[C@H]1CN(CCCc2ccccc2)CCN1c1cccc(O)c1 | cAMP, antagonist | – | human receptor, together with: fentanyl EC90 | IC50 | 24.9 ± 4.04 nM |
| CCC1C(=O)N(C2CCN(C/C=C/c3ccccc3)CC2)c2ccccc21 (stereo not drawn) | agonist | cell membranes | – | EC50 | 2110 ± 135 nM |
| N=C(N)NCCC[C@H](N)C(=O)NCC1(Nc2ccccc2)CCN(Cc2ccccc2)CC1 | binding | HEK293 membranes | together with: [3H]DAMGO | Ki | > 5000 nM |
| O=C1Cc2ccccc2N1C1CCN([C@@H]2CC[C@@H]3CCCc4cccc2c43)CC1 | agonist | cell membranes | – | EC50 | 745 ± 257 nM |
| N=C(N)NCCNC(=O)C1(Nc2ccccc2)CCN(Cc2ccccc2)CC1 | binding | HEK293 membranes | together with: [3H]DAMGO | Ki | > 5000 nM |
| CCC1C(=O)N(C2CCN(CCCCc3ccc(-c4ccccc4)cc3)CC2)c2ccccc21 (stereo not drawn) | agonist | cell membranes | – | EC50 | > 10000 nM |
| C=C(C)[C@@H]1CCC(C)=C[C@H]1c1c(O)cc(CCC)cc1O | cAMP level, antagonist | HEK293 expressing human µ-opioid receptor | together with: fentanyl 500 pM (EC95) | IC50 | 556 nM |
| Oc1cccc(N2C[C@H]3CC[C@@H](C2)N3CCCc2ccccc2)c1 | cAMP, antagonist | – | human receptor, together with: fentanyl EC90 | IC50 | > 10000 nM |
| CCC1C(=O)N(C2CCN(C(C)CC(c3ccccc3)c3ccccc3)CC2)c2ccccc21 (stereo not drawn) | agonist | cell membranes | – | EC50 | > 10000 nM |
| CCCCCc1cc(O)c([C@@H]2C[C@@H](CO)CC[C@H]2C(C)C)c(O)c1 | cAMP level, antagonist | HEK293 expressing human µ-opioid receptor | together with: fentanyl 500 pM (EC95) | IC50 | 137 nM |
| C=C[C@H]1[C@H]2CCC[C@]1(c1cccc(O)c1)CCN2C | forskolin-induced cAMP, antagonist | – | together with: fentanyl at EC90 | IC50 | > 10000 nM |
| C=C(C)[C@@H]1CCC(C)=C[C@H]1c1c(OC)cc(CCCCC)cc1OC | cAMP level, antagonist | HEK293 expressing human µ-opioid receptor | together with: fentanyl 500 pM (EC95) | IC50 | 90 nM |
| C=C[C@H]1[C@H]2CCC[C@]1(c1cccc(O)c1)CCN2CCc1ccc([N+](=O)[O-])cc1 | forskolin-induced cAMP, antagonist | – | together with: fentanyl at EC90 | IC50 | 9.93 ± 3 nM |

Some of these lines once more:
| SMILES | assay | system | conditions | endpoint | value |
| --- | --- | --- | --- | --- | --- |
| Oc1cccc(N2CCN(CCCc3ccccc3)CC2)c1 | cAMP, antagonist | – | human receptor, together with: fentanyl EC90 | IC50 | 190 ± 20.9 nM |
| N=C(N)NCC(=O)NCC1(Nc2cccc3ccccc23)CCN(Cc2ccccc2)CC1 | binding | HEK293 membranes | together with: [3H]DAMGO | Ki | 688 ± 60 nM |
